Experimental data gathered from unrelated publications.
Lines come from different studies, so protocols differ. Numbers after ± are the reported error.

For `C=CC(=O)Nc1cccc(Cn2ncc3cnc(Nc4cnn(CCOC)c4)nc32)c1`, “percent of control” read 100% (SRMS human; binding, KINOMEscan; 100 nM; lower = stronger binding).
With `O=C(N/N=C/c1cc[n+](Cc2ccccc2)c2ccccc12)c1cccc(C(=O)N/N=C/c2cc[n+](Cc3ccccc3)c3ccccc23)c1` the ΔTm was 6.5 ± 0.1 °C (MYC parallel G4 DNA; FRET melting; 1 µM, DNA 0.2 µM).
The Emax of `O=C(N/N=C/c1ccccn1)c1cc(-c2ccc(Cl)cc2)nc2ccccc12` is reported as 30% (Mus musculus; gene silencing, high-content imaging; LDR reporter GFP cells; 30 h, retest run 1).
The remaining binding of `Nc1ncc(-c2cc(-c3cnn(CC(F)(F)F)c3)ncc2F)nc1C(=O)NC1CNCC(F)C1` (stereo not drawn) is reported as 73% (ACVR1B; KINOMEscan; 1 µM; reference: DMSO control).
`Cc1ncsc1-c1ccc(C(C)NC(=O)C2CC(O)CN2C(=O)C(NC(=O)CCCCCCCCCCN2CCCC(Nc3ncc(Cl)c(Nc4ccccc4S(=O)(=O)C(C)C)n3)C2)C(C)(C)C)cc1` (stereo not drawn): “log2 fold change” -1.73 (22Rv1; RNA-seq, measured: ZBTB3 mRNA; concentration not given; reference: DMSO).
For `C[n+]1ccc(/C=N/NC(=O)C(=O)N/N=C/c2cc[n+](C)c3ccccc23)c2ccccc21`, the ΔTm was 0.6 ± 0.3 °C (hp2 hairpin duplex DNA; FRET melting; 1 µM, with: ds26 10 µM).
`COC1CN([C@H]2CC[C@H]([C@@]3(C)Oc4c(Cl)cc(C(=O)NCc5c(SC)cc(C)[nH]c5=O)c(C)c4O3)CC2)C1`: “log2 fold change” 2.32 (RNA-seq, measured: TMEM108; human, whole blood; dose not given, 24 h; reference: pretreatment baseline).
`C[n+]1cc(/C=N/NC(=O)c2cccc(C(=O)N/N=C/c3cc4ccccc4[n+](C)c3)n2)cc2ccccc21` gave a ΔTm of 1.2 ± 0.4 °C (hp2 hairpin duplex DNA; FRET melting; 1 µM).
With `CNS(=O)(=O)Nc1nccc(Cc2c(C)c3ccc(Oc4ncccc4F)cc3oc2=O)c1F` the IC50 was 295 nM (Caco-2; cell viability; 7 days).
